Assay results of several laboratories.
Compare with care: the assays were run in different laboratories. “And” joins repeats or separate records; there may be more than shown. Numbers after ± are the reported error.

SMILES | system | setting | how to read | quantity | result
C[C@@H](Oc1cc(-c2cnn(C3CCNCC3)c2)cnc1N)c1c(Cl)ccc(F)c1Cl | healthy human | oral, 250 mg, added: esomeprazole 40 mg daily 5 days | relative to: compound alone | AUC(0-inf) decrease | 10% and ~10%
CC[C@H](C)[C@H](NC(=O)[C@H](Cc1ccccc1)NC(=O)[C@H](CCC(=O)O)NC(=O)[C@H](CCCCNC(=O)COCCOCCNC(=O)COCCOCCNC(=O)CC[C@H](NC(=O)CCCCCCCCCCCCCCCCC(=O)O)C(=O)O)NC(=O)[C@H](C)NC(=O)[C@H](C)NC(=O)[C@H](CCC(N)=O)NC(=O)CNC(=O)[C@H](CCC(=O)O)NC(=O)[C@H](CC(C)C)NC(=O)[C@H](Cc1ccc(O)cc1)NC(=O)[C@H](CO)NC(=O)[C@H](CO)NC(=O)[C@@H](NC(=O)[C@H](CC(=O)O)NC(=O)[C@H](CO)NC(=O)[C@@H](NC(=O)[C@H](Cc1ccccc1)NC(=O)[C@@H](NC(=O)CNC(=O)[C@H](CCC(=O)O)NC(=O)C(C)(C)NC(=O)[C@@H](N)Cc1cnc[nH]1)[C@@H](C)O)[C@@H](C)O)C(C)C)C(=O)N[C@@H](C)C(=O)N[C@@H](Cc1c[nH]c2ccccc12)C(=O)N[C@@H](CC(C)C)C(=O)N[C@H](C(=O)N[C@@H](CCCNC(=N)N)C(=O)NCC(=O)N[C@@H](CCCNC(=N)N)C(=O)NCC(=O)O)C(C)C | human, moderate hepatic impairment | subcutaneous, 0.5 mg single dose | relative to: impairment over normal function | AUC(0-inf) ratio | 1.02
CCOc1c([C@H](C)n2nc(C)c3c(N)ncnc32)cc(Cl)c(F)c1[C@@H]1CNC(=O)C1 | healthy fasted humans, plasma | oral, 10 mg | – | AUC(0-inf) geometric mean | 7.46 µM·h
Cc1ccc(NC(=O)c2ccc(CN3CCN(C)CC3)cc2)cc1Nc1nccc(-c2cncc(-c3oncc3C)c2)n1 | older healthy human adults, plasma | oral, 250 mg single dose, fed, mean | – | AUC(0-inf) | 214000 ng·h/mL
NS(=O)(=O)OC[C@@H]1C[C@@H](n2ccc3c(N[C@H]4CCc5ccccc54)ncnc32)C[C@@H]1O | human | intravenous, 15 mg/m^2, added: itraconazole | relative to: with over without itraconazole | AUC(0-inf) ratio | 133%
CC(C)NC[C@@H](C(=O)N1CCN(c2ncnc3c2[C@H](C)C[C@H]3O)CC1)c1ccc(Cl)cc1 | human, moderate hepatic impairment (Child-Pugh), plasma | oral, 100 mg single dose, geometric mean | – | AUC(0-inf) | 808 ng·h/mL
CCOc1cc([C@@H](CS(C)(=O)=O)N2C(=O)c3cccc(NC(C)=O)c3C2=O)ccc1OC | healthy humans, plasma | 30 mg, added: multiple oral rifampicin doses | relative to: with rifampicin over alone | AUC(0-inf) ratio | 28%
COC(=O)c1ccc2c(c1)NC(=O)/C2=C(\Nc1ccc(N(C)C(=O)CN2CCN(C)CC2)cc1)c1ccccc1 | human, healthy, plasma | oral, 50 mg, added: ketoconazole 400 mg | relative to: alone | AUC(0-inf) ratio | 160%
CC(C)(C)OC[C@@H]1C(=O)NCCN1C(=O)C[C@H](N)Cc1cc(F)c(F)cc1F | human | 5 mg once daily, day 10 | – | AUC(0-inf) at steady state | 245 ± 41.8 ng·h/mL
O=C(NC[C@H]1CN(c2ccc(N3CCOCC3=O)cc2)C(=O)O1)c1ccc(Cl)s1 | human, moderate renal impairment, plasma | oral, 10 mg, added: erythromycin at steady state | relative to: same subjects, compound alone | AUC(0-inf) increase | ~71%
C=CC(=O)Nc1cc(Nc2ncc(C(=O)OC(C)C)c(-c3cn(C)c4ccccc34)n2)c(OC)cc1N(C)CCN(C)C | human, fasted | oral, 120 mg single dose, arithmetic mean | – | AUC(0-inf) | 494 ng·h/mL
CO[C@H]1C[C@@H]2CC[C@@H](C)[C@@](O)(O2)C(=O)C(=O)N2CCCC[C@H]2C(=O)O[C@H]([C@H](C)C[C@@H]2CC[C@@H](O)[C@H](OC)C2)CC(=O)[C@H](C)/C=C(\C)[C@@H](O)[C@@H](OC)C(=O)[C@H](C)C[C@H](C)/C=C/C=C/C=C/1C | human, whole blood | oral, 30 mg, without grapefruit juice | – | AUC(0-inf) | 1810 ng·h/mL

A few entries again:
SMILES | system | setting | how to read | quantity | result
CO[C@H]1C[C@@H]2CC[C@@H](C)[C@@](O)(O2)C(=O)C(=O)N2CCCC[C@H]2C(=O)O[C@H]([C@H](C)C[C@@H]2CC[C@@H](O)[C@H](OC)C2)CC(=O)[C@H](C)/C=C(\C)[C@@H](O)[C@@H](OC)C(=O)[C@H](C)C[C@H](C)/C=C/C=C/C=C/1C | human, whole blood | oral, 30 mg, without grapefruit juice | – | AUC(0-inf) | 1810 ng·h/mL
CC(C)(C)OC[C@@H]1C(=O)NCCN1C(=O)C[C@H](N)Cc1cc(F)c(F)cc1F | human | 5 mg once daily, day 10 | – | AUC(0-inf) at steady state | 245 ± 41.8 ng·h/mL
